Results pooled from the literature.
Protocols differ between the studies behind these lines. Numbers after ± are the reported error.

Cn1cnc2c(F)c(Nc3ccc(Br)cc3Cl)c(C(=O)NOCCO)cc21  AUC (healthy subjects, plasma; oral, 50 mg single dose, LS mean): 2620 ng·h/mL
CC(C(=O)O)c1ccc(-c2ccccc2)c(F)c1 (centres unmarked)  AUC (healthy volunteers, plasma; oral, 100 mg, geometric mean, with: control beverage 250 mL): 56800 ng·h/mL
O=C(CCCCCCC(=O)Nc1ccccc1)NO  AUC (cancer patients, serum; oral, 600 mg, cycle 1 day 2, AUC 0-7 h, with: flavopiridol 30 to 30 mg/m^2): 4.35 µM·h
COc1cc2c(cc1OC)CN(CCc1ccc(NC(=O)c3cc(OC)c(OC)cc3NC(=O)c3cnc4ccccc4c3)cc1)CC2  AUC (human, plasma; intravenous infusion, 4 mg/kg, up to 24 h after infusion end): 14500 ng·h/mL
Cc1cc(Nc2cc(N3CCN(C)CC3)nc(Sc3ccc(NC(=O)C4CC4)cc3)n2)[nH]n1  AUC (patients, plasma; continuous intravenous infusion, 8 to 96 mg/m2/h, 24 h infusion, mean across doses): 6.4 to 167 µM·h
Nc1nc(NC2CC2)c2ncn([C@H]3C=C[C@@H](CO)C3)c2n1  AUC (HIV-infected children and adolescents, Tanner stage 1-2, plasma; oral, 8 mg/kg, 0 to 8 h): 8000 ng·h/mL
O=C1CCc2ccc(OCCCCN3CCN(c4cccc(Cl)c4Cl)CC3)cc2N1  AUC (healthy Japanese men, CYP2D6 IM, plasma; oral, 3 mg aripiprazole single, with: fluvoxamine 100 mg/day): 2530 ± 620 ng·h/mL
CN1CCN(c2ccc3nc(-c4c(N)c5c(F)cccc5[nH]c4=O)[nH]c3c2)CC1  AUC (patients, plasma; oral, 300 mg, day 1, AUC 0-24 h maximum concurrent dosing, with: gemcitabine and capecitabine): 5390 ng·h/mL

A few entries again:
Cn1cnc2c(F)c(Nc3ccc(Br)cc3Cl)c(C(=O)NOCCO)cc21  AUC (healthy subjects, plasma; oral, 50 mg single dose, LS mean): 2620 ng·h/mL
